# Published values collected from several papers.
# Parts stem from different laboratories: compare values within a part only.
# UniProt Q9Y2U5, sequence (whole entry, looked up): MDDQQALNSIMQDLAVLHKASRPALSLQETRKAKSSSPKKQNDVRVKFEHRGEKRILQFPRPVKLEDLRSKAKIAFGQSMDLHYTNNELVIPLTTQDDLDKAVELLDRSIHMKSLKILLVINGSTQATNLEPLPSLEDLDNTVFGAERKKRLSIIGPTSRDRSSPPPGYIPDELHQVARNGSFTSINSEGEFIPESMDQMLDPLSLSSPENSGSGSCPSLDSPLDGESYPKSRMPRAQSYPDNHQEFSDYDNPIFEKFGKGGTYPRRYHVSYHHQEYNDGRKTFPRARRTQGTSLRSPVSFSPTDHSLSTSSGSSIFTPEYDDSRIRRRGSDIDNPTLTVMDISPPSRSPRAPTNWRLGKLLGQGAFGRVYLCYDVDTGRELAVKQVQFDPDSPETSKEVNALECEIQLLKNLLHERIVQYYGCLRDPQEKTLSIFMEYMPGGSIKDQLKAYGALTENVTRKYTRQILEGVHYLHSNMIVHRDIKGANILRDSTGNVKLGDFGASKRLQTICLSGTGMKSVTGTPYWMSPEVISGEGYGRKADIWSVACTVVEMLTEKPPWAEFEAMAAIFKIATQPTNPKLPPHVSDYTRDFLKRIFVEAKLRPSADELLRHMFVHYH
# UniProt P23443, sequence (whole entry, looked up): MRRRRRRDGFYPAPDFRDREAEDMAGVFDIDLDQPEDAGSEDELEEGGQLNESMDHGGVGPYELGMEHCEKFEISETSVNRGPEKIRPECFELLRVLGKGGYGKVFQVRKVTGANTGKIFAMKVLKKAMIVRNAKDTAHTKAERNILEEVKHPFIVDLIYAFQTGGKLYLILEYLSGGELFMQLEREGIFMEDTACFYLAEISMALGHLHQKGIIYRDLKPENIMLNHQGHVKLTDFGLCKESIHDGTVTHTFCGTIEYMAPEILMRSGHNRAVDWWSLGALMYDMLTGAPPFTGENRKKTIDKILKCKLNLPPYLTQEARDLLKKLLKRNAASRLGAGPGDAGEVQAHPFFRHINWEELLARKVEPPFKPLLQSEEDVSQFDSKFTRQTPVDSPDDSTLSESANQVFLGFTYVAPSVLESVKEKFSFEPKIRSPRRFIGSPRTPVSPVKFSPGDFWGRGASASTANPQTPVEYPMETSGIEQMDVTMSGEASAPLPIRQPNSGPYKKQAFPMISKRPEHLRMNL
# UniProt P42338, sequence (whole entry, looked up): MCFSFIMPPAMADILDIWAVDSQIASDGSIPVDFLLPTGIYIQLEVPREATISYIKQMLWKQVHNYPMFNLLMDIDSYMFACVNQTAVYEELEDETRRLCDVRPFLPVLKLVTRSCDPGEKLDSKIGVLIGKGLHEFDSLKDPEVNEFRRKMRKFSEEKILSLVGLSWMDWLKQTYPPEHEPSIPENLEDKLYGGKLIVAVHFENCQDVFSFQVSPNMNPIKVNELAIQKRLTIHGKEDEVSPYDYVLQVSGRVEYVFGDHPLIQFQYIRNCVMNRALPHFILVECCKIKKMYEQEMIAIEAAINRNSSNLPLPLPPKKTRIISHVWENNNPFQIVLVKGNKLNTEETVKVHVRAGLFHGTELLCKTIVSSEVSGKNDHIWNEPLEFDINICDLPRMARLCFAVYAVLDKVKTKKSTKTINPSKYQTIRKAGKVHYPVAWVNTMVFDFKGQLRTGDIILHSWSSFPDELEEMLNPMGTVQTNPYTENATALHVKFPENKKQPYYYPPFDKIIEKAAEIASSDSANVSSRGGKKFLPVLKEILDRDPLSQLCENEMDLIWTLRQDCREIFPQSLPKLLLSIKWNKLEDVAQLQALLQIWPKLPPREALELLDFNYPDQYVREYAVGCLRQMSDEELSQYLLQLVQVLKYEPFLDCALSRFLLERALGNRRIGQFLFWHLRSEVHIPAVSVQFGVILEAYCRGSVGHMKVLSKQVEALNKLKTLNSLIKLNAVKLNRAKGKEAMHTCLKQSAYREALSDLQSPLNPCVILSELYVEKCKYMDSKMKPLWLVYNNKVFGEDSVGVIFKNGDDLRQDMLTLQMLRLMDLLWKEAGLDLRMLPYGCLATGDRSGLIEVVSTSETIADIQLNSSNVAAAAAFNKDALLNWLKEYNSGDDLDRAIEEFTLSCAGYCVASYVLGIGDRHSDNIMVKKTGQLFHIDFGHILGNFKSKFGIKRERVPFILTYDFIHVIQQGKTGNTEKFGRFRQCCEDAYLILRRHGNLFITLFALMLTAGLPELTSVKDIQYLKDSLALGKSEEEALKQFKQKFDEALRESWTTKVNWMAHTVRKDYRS
# UniProt P42684, sequence (whole entry, looked up): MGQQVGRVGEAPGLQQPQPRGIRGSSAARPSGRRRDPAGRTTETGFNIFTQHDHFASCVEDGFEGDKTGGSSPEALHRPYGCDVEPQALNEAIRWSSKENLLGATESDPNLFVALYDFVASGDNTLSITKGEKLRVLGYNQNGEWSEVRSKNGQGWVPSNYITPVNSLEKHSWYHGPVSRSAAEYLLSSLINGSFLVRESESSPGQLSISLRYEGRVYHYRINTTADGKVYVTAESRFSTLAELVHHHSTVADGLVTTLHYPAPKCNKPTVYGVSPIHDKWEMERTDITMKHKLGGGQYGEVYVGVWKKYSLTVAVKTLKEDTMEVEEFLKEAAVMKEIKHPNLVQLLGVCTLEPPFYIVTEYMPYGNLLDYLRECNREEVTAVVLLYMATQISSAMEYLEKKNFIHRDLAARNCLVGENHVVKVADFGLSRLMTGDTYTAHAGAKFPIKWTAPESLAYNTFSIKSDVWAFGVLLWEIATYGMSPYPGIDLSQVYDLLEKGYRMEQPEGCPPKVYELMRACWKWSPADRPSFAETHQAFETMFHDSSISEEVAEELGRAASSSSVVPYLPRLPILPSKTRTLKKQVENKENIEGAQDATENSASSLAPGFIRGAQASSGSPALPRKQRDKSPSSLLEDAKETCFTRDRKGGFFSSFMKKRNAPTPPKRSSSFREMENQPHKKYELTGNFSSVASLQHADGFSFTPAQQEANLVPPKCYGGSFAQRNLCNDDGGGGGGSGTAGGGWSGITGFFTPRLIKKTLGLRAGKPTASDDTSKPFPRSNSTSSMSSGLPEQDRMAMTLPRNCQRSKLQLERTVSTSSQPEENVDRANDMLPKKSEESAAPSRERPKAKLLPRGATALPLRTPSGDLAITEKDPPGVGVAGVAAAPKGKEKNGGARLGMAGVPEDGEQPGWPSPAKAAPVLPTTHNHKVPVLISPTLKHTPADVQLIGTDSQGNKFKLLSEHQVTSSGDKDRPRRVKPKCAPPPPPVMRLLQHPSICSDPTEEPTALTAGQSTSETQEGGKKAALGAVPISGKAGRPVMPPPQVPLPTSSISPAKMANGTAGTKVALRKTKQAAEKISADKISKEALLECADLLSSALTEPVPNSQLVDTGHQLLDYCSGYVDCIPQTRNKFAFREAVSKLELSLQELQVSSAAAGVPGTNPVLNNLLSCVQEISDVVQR
# UniProt O75460, sequence (whole entry, looked up): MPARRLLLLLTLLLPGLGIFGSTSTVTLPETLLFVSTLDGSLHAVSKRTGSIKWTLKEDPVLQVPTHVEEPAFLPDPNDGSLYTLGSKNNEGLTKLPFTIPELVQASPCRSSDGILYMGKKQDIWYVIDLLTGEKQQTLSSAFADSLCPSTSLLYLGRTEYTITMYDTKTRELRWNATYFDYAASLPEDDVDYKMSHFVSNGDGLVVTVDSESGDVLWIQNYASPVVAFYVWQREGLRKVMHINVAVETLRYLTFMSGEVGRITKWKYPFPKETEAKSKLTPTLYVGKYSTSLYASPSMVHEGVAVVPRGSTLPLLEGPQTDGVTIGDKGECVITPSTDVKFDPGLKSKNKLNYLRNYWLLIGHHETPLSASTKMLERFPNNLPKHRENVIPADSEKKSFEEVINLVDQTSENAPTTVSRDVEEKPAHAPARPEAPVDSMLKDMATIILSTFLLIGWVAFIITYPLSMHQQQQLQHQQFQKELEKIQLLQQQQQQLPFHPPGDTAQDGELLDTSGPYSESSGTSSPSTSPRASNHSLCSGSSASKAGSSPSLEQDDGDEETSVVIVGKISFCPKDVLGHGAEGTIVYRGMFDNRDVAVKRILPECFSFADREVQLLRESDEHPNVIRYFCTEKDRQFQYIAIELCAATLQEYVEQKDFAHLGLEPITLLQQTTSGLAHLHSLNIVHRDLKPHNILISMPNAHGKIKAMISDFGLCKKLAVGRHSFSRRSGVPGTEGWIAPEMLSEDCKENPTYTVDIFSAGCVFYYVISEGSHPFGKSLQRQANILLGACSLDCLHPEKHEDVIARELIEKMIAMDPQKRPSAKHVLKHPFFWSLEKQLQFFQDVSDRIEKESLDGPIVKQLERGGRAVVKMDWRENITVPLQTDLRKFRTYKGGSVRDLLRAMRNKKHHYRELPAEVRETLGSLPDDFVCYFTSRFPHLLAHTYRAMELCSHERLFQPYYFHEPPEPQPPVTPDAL

# Set 1 — technique: RNA Bind-n-Seq; form: RNA; sample: in vitro; concentration: not given; notes: 4-mer, random 30-nt RNA, single round; added: RocA, ADP, phosphate; relative to: input library; direction: higher = stronger binding
# Target: ATP-dependent RNA helicase DDX3X, helicase core (DDX3X, Homo sapiens, UniProt O00571, residues 132-607)
# UniProt O00571, sequence (132-607, looked up): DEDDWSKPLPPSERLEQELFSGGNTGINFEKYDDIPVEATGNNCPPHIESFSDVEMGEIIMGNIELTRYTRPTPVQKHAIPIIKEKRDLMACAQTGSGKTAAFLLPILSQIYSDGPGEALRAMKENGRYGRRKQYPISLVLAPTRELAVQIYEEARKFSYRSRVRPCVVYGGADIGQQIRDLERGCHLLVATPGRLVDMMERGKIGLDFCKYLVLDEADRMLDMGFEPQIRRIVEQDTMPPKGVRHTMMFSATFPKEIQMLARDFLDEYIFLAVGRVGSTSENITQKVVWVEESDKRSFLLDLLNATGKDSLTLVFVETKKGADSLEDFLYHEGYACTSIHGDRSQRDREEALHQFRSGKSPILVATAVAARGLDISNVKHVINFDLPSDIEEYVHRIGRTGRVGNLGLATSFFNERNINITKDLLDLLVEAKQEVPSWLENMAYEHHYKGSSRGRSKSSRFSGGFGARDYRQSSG
Oligonucleotide,4-mer enrichment
AUGU,0.942 fold
AGUA,1.34 fold
ACAG,0.824 fold
AACA,0.828 fold
CAAA,0.832 fold
GUUA,1.03 fold
ACCG,0.76 fold
CAGC,0.713 fold

# Set 2 — effect on: cell-free assay; technique: competition with immobilised ligand; concentration: 0.1 µM
# SMILES: Cn1nc(C(=O)NCc2ccc(C(=O)O)cc2)cc1-c1ccc2[nH]ccc2c1
target,remaining binding
"ABL2 (Homo sapiens, UniProt P42684)",93%
"ERN1 (Homo sapiens, UniProt O75460)",83%
"MAP3K2 (Homo sapiens, UniProt Q9Y2U5)",75%
"IKBKE (Homo sapiens, UniProt Q14164)",100%
"MAST1 (Homo sapiens, UniProt Q9Y2H9)",100%
"RPS6KB1 (Homo sapiens, UniProt P23443)",91%
"PIK3CB (Homo sapiens, UniProt P42338)",82%
"LRRK2 (Homo sapiens, UniProt Q5S007)",75%

# Set 3 — technique: competition protein-binding microarray; form: double-stranded DNA, one strand shown; sample: in vitro; concentration: 2 µM; added: Cbf1 competitor, 0.05 µM; direction: higher = stronger binding; all sequences stand within: … GTCTTGATTCGCTTGACGCTGCTG
# Target: Phosphate system positive regulatory protein PHO4, full length, GST-tagged (PHO4, Saccharomyces cerevisiae, UniProt P07270, residues 1-312)
# Notes: whole 60-bp probe, lowest competitor level
# Target sequence (chain): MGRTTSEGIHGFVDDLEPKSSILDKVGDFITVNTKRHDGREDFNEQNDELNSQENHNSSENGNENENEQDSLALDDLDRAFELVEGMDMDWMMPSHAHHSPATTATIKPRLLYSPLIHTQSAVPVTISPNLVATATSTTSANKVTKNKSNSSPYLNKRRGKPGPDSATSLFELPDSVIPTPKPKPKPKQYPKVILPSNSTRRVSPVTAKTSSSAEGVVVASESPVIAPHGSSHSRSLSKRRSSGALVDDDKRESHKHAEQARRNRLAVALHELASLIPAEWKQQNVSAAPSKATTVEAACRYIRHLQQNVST
Oligonucleotide,fluorescence intensity
AGTATCCTCGACCTACACGTCTTCACCATCAGCACC,7180 a.u.
GCCGGCCTTTATACCCACGGGTGCATCTTCAAAGAC,8760 a.u.
TGACGATTGCTCTTTCCCGTGCTTTATCGAGTAACC,7270 a.u.
GTCTTGTCTCATTGCAGAGTGGGTGTCCCCACTTCA,4880 a.u.
CTAACGAAGGTTTATCACGTGTTTTACAAGCCAAGT,13400 a.u.
TTGGGGTTTATATCGCACGCTTATATTTGGGCCAGC,6860 a.u.
CTTCTGTAAATTTGGTCTGTGGGTGGACGCGCCCCG,4530 a.u.
CTAACGAAGGTTTTTCACGTGCCCTACAAGCCAAGT,14300 a.u.

# Set 4 — effect on: enzyme activity; action: inhibitor; concentration: 0.5 µM; relative to: control
# Target: Tyrosine-protein kinase TXK (TXK, Homo sapiens, UniProt P42681)
# Target sequence (P42681 1-527): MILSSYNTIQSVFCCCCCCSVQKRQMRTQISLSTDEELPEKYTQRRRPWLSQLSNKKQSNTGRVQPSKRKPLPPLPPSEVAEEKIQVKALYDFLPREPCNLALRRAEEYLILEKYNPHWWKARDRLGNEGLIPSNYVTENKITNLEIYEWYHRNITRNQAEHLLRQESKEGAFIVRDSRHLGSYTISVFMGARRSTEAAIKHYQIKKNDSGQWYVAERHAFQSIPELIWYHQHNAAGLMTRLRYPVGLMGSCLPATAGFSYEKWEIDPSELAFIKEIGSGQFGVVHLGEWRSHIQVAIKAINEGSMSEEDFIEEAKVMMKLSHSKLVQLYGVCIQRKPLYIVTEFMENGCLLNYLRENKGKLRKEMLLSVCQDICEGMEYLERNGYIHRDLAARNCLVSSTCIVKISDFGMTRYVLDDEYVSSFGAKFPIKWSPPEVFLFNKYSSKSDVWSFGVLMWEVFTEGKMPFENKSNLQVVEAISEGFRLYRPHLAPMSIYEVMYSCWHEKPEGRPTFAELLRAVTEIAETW
SMILES,remaining activity [%]
O=C(Nc1cccc(Nc2cc(Nc3cccc(C(F)(F)F)c3)ncn2)c1)C1CC1,97.1
CC(C)[C@H](CO)Nc1nc(Nc2cc(N)cc(Cl)c2)c2ncn(C(C)C)c2n1,42.5
NCCNc1ncc(C(N)=O)c(Nc2cccc(C(F)(F)F)c2)n1,85.2
O=C1NC(=O)C(c2cn(CCCO)c3ncccc23)=C1c1cnccn1,75.3
O=C1NC(=O)C(c2cn(CCCn3ccnc3)c3ccccc23)=C1Nc1ccccc1,95.3
Nc1[nH]nc2nc3ccccc3nc12,97.6

# Repeated from above (set 2):
target,remaining binding
"MAST1 (Homo sapiens, UniProt Q9Y2H9)",100%
"LRRK2 (Homo sapiens, UniProt Q5S007)",75%
